Assay results gathered from unrelated publications.
Each numbered part is a random draw from the data of one study; scales do not carry over between parts. Substitutions count along the parent as printed.
Sequence of UniProt Q9BY78 (whole entry, looked up): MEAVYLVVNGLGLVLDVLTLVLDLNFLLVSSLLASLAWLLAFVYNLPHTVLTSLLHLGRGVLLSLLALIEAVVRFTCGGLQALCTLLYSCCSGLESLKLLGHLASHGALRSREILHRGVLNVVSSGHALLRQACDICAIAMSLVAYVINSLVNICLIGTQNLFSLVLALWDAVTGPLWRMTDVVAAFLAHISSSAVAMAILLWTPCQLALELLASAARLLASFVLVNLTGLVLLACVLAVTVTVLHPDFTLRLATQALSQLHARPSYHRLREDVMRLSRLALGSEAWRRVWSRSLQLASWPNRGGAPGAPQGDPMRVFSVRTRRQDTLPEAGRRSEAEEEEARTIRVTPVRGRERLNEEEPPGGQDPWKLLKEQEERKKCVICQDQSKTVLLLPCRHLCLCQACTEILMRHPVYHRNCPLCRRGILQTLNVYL
Sequence of UniProt Q9UNE7 (whole entry, looked up): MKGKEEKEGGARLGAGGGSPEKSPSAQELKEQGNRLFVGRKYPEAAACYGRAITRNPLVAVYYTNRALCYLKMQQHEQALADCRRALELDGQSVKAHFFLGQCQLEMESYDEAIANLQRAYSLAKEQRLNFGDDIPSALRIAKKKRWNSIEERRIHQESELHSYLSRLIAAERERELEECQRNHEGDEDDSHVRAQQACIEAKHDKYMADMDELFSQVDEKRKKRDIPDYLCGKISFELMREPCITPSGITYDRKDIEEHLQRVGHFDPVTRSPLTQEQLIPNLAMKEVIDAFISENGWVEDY

Block 1 — method: universal PBM; molecule type: double-stranded DNA, one strand shown; matrix: in vitro; concentration: 600 nM; reading: higher = stronger binding
Target: Sal-like protein 4, full length isoform A (SALL4, Homo sapiens, UniProt Q9UJQ4, residues 1-1053)
Sequence of UniProt Q9UJQ4 (whole entry, looked up): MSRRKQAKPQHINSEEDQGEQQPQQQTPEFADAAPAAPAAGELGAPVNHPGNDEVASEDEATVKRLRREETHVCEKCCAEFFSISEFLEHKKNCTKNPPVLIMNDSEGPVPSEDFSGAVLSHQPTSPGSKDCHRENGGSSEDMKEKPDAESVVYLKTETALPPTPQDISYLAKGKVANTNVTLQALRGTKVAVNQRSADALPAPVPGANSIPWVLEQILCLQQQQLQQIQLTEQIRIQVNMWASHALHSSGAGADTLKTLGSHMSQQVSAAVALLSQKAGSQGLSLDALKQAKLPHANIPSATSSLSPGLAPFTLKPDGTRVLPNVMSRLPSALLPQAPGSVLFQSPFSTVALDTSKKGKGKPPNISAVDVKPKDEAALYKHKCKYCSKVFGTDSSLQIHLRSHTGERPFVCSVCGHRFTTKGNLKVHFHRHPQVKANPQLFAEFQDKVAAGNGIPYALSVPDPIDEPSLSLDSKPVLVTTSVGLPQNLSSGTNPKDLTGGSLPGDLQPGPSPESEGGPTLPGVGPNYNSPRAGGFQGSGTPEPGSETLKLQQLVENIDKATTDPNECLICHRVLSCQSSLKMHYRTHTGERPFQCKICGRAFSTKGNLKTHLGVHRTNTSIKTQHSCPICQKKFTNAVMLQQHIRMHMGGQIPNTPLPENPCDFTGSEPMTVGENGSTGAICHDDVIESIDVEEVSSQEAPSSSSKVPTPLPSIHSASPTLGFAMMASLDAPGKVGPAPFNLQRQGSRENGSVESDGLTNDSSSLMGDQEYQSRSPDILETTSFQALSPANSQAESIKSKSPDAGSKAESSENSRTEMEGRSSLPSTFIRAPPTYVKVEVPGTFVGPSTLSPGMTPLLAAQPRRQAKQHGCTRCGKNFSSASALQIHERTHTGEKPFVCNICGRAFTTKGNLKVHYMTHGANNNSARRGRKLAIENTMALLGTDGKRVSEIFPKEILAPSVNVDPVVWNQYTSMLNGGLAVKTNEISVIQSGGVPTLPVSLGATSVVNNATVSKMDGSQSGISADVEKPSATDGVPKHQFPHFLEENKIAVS
Setting: 8-mer, flanks averaged, mean of replicates
For `TCAGGGCA`, the E-score was -0.0871.
`AGAAGAAG` has an E-score of -0.0413.
With `GGCTACCA` the E-score was -0.0982.
`AAGTCAGT` has an E-score of 0.117.
With `ATACCCCA` the E-score was -0.0134.
`AGATTGGG` gave an E-score of 0.17.
The E-score of `ATGATAAC` is reported as 0.354.
`CAGTCAGC` has an E-score of -0.198.

Block 2 — method: protein-binding microarray; molecule type: double-stranded DNA, one strand shown; matrix: in vitro; concentration: not given; reading: higher = stronger binding
Target: Protein C-ets-1 (ETS1, Homo sapiens, UniProt P14921, residues 1-441, K379A, full length assumed)
Setting: k-mer, scored over probes, only values ≥0.25
Construct (chain): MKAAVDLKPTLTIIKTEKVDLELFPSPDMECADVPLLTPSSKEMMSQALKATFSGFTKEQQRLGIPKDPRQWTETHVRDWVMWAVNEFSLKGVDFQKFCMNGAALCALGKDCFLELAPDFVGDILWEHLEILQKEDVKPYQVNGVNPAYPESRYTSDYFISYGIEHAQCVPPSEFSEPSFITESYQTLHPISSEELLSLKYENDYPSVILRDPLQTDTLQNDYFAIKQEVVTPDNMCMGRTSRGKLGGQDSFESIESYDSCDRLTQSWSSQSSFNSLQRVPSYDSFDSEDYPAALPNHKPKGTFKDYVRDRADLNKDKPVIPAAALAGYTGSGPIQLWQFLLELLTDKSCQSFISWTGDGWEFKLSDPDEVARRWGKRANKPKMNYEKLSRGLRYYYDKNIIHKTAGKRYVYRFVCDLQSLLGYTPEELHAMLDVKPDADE
For `CACAACAC`, the E-score was 0.282.
With `TACATGTA` the E-score was 0.259.
`GTACTACA` gave an E-score of 0.258.
`ACCGGATG` gave an E-score of 0.437.
The E-score of `CACCGGTC` is reported as 0.361.
With `AAACCGGA` the E-score was 0.398.
The E-score of `GTACCGTA` is reported as 0.253.
`CGGATAAA` has an E-score of 0.264.

Block 3 — target: UBE2D3 UBC core domain (UniProt P61077); method: yeast two-hybrid; matrix: yeast; setting: mostly zero background; baseline: not given; reading: higher = stronger interaction
Sequence of UniProt P61077 (whole entry, looked up): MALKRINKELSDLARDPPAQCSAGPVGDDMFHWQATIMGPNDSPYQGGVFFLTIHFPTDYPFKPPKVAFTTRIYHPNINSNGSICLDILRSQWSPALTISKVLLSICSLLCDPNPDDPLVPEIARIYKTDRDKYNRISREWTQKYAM
`RNF167 RING domain (UniProt Q9H6Y7)`: “lacZ reporter activity” 16000.
`RNF26 RING domain (UniProt Q9BY78)`: “lacZ reporter activity” 4390.
`STUB1 RING domain (UniProt Q9UNE7)`: “lacZ reporter activity” 0.

Block 4 — observed: peptide-MHC binding; molecule type: peptide; concentration: concentration not given
Target: HLA class I histocompatibility antigen, A alpha chain, allele A*25:01 (Homo sapiens, UniProt P04439)
For `LVDENQSWY`, binding read “inactive”.
`TVAPPAPVY` — result for binding: “inactive”.
`RSVWIPGRW`: binding “inactive”.
Under binding, `GSSDFQVHFLK` is recorded as “inactive”.

Block 5 — method: EMSA with sequencing; molecule type: double-stranded DNA, one strand shown; matrix: in vitro; concentration: 10 and 20 nM; baseline: negative control set to 0; reading: higher = stronger binding
Target: Hepatocyte nuclear factor 3-alpha (Foxa1, Mus musculus, UniProt P35582, residues 1-468, full length assumed)
Setting: whole designed probe, mean of two concentrations, ends assumed
Shared flanks, not repeated: GTGAGCGGTGCCCATTGATGGGGAAC … TTTCACTGGGATCGTGGGGAC
Target sequence (chain): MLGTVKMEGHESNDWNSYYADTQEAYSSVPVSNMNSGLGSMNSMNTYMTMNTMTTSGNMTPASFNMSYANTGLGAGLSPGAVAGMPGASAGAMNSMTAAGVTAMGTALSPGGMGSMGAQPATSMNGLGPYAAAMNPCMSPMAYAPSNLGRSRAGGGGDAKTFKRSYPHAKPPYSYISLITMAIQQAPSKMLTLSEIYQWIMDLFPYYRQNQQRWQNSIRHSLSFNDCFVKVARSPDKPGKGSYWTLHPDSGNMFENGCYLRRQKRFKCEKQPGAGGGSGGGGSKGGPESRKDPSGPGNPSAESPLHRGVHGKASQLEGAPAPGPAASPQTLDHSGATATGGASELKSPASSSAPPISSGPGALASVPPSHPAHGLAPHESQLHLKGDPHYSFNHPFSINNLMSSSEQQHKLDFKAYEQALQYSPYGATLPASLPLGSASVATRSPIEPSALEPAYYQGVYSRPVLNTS
`GGTATAACTAAACAATCTAACAAACAAAAAGATACTAAAGATACCGTCTATAATTGGACCCAGGTCAGTGGTGCCTCCAGGCACCTGGCCAAAGTCATCTCAGGGGGTTTGGAAGCGGAAGATAATATCAACAATGGCTAACACATTCAACGCACAAAACAGAATCCTGTTAGAACAGGTGAGAAGTAGGGCT`: “normalised bound fraction” 0.195 ratio.
`CTGGCCTATCTCCCACCCCTAATGTCCCACACCAGTTCCTGATCTCCTGCCCCACCCCTCCTGCACCCTGCCCCTTCTCAGGTGACTCACTGTGTCATCTTCCTTGAAGGAATGATTTCTGGTTCATGGCCCCAGAGCTGGAGCTTTGGAAGGATAATGGGAAAAGCAGCCAGGGTCCCTGCCCTCAAGAGAC`: “normalised bound fraction” -0.0835 ratio.
For `ATCTTCCCCCTCTTCCTTGCCCCACCAGCTCACCTTCCCGGGTTATTTGCAGATAGGAAAATAAATAACGCCCTGATAGTATCCCATGCTTCTGGCGCAAACTGCTGTTTGCTCTGGATGAATCATGGTCCTTTGGCGACGCCAGGCTCCGGGAGAGCAAAGCACCGTGTCAGGGCCATGATCCGGGGTGGCC`, “normalised bound fraction” read 0.311 ratio.
`ATCTTCCCCCTCTTCCTTGCCCCACCAGCTCATCCTCCCGGGTTATTTGCAGATAGGAAAATAAATAAAGCCGGCATTCGTTAACCCTCTTCTGGCGCAAACTGCTGTTTGCTCTGGATGAATCATGGTCCTTTGGCGACGCCAGGCTCCGGGAGAGCAAAGCACCGTGTCAGGGCCATGATCCGGGGTGGCC` — result for “normalised bound fraction”: 0.322 ratio.
Under “normalised bound fraction”, `TTTTAAAGATTATGTAGAATTTTTAATCGAGAGTTAATTTTGTCTGCAGCATAACTCCTCCTCAAGGCAAAATACTTCTTATGATCAGATCAGAGTAAACATCCAGTGCACACAAAGTAATTTAAAATGCAAATAGTTTGTTATTAAATACCAGTTATGCATCAGTAGGAAGGACATTGTGGGAGTTGTTTGG` is recorded as 0.295 ratio.
`TCTCTTTTAAAAATAGTGTTGGTGATATTTTAATTTTTTTTCCAACCAGTTTATATTTTACCAAACGCTTTTCCAAAGGCTGGACATACAATGTAAACAAGAAGGTGGAAATGTTACCCAGAGATGTCTAGCTTGTTGCTGAACTACAAATTTATTATTTAGAGGAAAGTTTACACTAGACATGTTGTCCAGA` — result for “normalised bound fraction”: 0.395 ratio.
`ATCTTCCCCCTCTTCCTTGCCCCACCAGCTCACCTTCCCGGGTTATTTGCAGATAGGAAAATAAATAAAGCCGGCATTCGTTAACGCAGTTCACGCGCATACTGCTGTTTGCTCTGGATGAATCATGGTCCTTTGGCGAGGCGTGGCTCCGGGAGAGCAAAGCACCGTGTCAGGGCCATGATCCGGGCTCGCC`: “normalised bound fraction” 0.345 ratio.
`ATCTTCCCCCTCTTCCTTGCCCCACCAGCTCACCTTCCCGGGTTATTTGCAGATAGGAAAATAAATAAAGCCGGCATTCGTTAACCCTCTTCTGGCGCAAACTGCTGTTTGCTCTGGATGAATCATGGTCCTTTGGCGACGCATCCGCCGGGGAGAGCAAAGCACCGTGTCAGGGCCATGATCCGGGGTGGCC`: “normalised bound fraction” 0.343 ratio.

Block 6 — target: CCNB1, cyclin fold, Cln2 fusion (human); method: yeast growth competition, sequencing; matrix: yeast; setting: strong parent motif; baseline: not given; reading: higher = stronger binding; parent: viral docking peptide; TSVRRALFTGGSD
`TSVCRALFTGGSD [R4C]` — result for “normalised enrichment score”: 2.75.
Under “normalised enrichment score”, `TSVRRATFTGGSD [L7T]` is recorded as 0.242.
Under “normalised enrichment score”, `TSVRRNLFTGGSD [A6N]` is recorded as 0.686.
For `TSVRRALFIGGSD [T9I]`, “normalised enrichment score” read 1.88.
For `TSVREALFTGGSD [R5E]`, “normalised enrichment score” read -0.0544.
`TSVRRALFTGGCD [S12C]`: “normalised enrichment score” 2.38.
`TSVRRALFTVGSD [G10V]` — result for “normalised enrichment score”: 1.59.
`TSVRRDLFTGGSD [A6D]`: “normalised enrichment score” 0.386.
For `TSGRRALFTGGSD [V3G]`, “normalised enrichment score” read -0.203.
`TSVRRALFTGQSD [G11Q]` — result for “normalised enrichment score”: 2.61.
`TSVRRALFTGDSD [G11D]` — result for “normalised enrichment score”: 3.5.
`TSVRRALFTWGSD [G10W]`: “normalised enrichment score” 1.11.
For `TSVRRALCTGGSD [F8C]`, “normalised enrichment score” read -0.00291.
`TLVRRALFTGGSD [S2L]`: “normalised enrichment score” 1.03.
`TSVLRALFTGGSD [R4L]`: “normalised enrichment score” 0.119.
`TSFRRALFTGGSD [V3F]` — result for “normalised enrichment score”: 0.423.
`TSVRRALFTGMSD [G11M]` — result for “normalised enrichment score”: 1.83.
`TSVRRRLFTGGSD [A6R]` — result for “normalised enrichment score”: 1.98.
`TSVRRASFTGGSD [L7S]` — result for “normalised enrichment score”: -0.0917.
`TTVRRALFTGGSD [S2T]`: “normalised enrichment score” 1.93.
For `TSVRRALHTGGSD [F8H]`, “normalised enrichment score” read 0.08.
For `TSVDRALFTGGSD [R4D]`, “normalised enrichment score” read 0.0648.
For `TSVIRALFTGGSD [R4I]`, “normalised enrichment score” read 2.22.
Under “normalised enrichment score”, `TSVRRQLFTGGSD [A6Q]` is recorded as 2.29.
For `TSVRRALFTKGSD [G10K]`, “normalised enrichment score” read 0.997.

For quick reference, copied from above (block 6):
`TSVRRALFTVGSD [G10V]` — result for “normalised enrichment score”: 1.59.
`TSVCRALFTGGSD [R4C]` — result for “normalised enrichment score”: 2.75.
`TSVRRALFTWGSD [G10W]`: “normalised enrichment score” 1.11.
Under “normalised enrichment score”, `TSVRRQLFTGGSD [A6Q]` is recorded as 2.29.
For `TSVRRALFIGGSD [T9I]`, “normalised enrichment score” read 1.88.
For `TSVRRALFTKGSD [G10K]`, “normalised enrichment score” read 0.997.
For `TSVRRALHTGGSD [F8H]`, “normalised enrichment score” read 0.08.
`TSVLRALFTGGSD [R4L]`: “normalised enrichment score” 0.119.
